Published values from different studies.
Parts stem from different laboratories: compare values within a part only. Positions count from the first letter of the parent shown.

Sample 1 — method: RNA Bind-n-Seq; molecule type: RNA; sample: in vitro; tested at: 200 nM; setting: whole 134-nt RNA, ends assumed; with: 150 mM KCl; baseline: input library; reading: higher = stronger binding
Target: Fragile X messenger ribonucleoprotein 1, C-terminal low-complexity region (Fmr1, Mus musculus, UniProt P35922)
Shared flanks, not repeated: GGGAGUUCUACAGUCCGACGAUC … UGGAAUUCUCGGGUGUCAAGG
`CUCAAGUCCUGUGCUACACAUCGUAUGUACCGAAUCGGGGUUGGUUGGUUGGGAAAGUAUUAUGUUACGCCGUUCGGAUCUGCACUUCCA` gave a log2 enrichment of 0.233.
With `UCCUGUGCUACACAUCGUAUGUACCGAAUCGGGUUUUUUGGGGUUUUUUGGGUUUUUUGGAAAGUAUUAUGUUACGCCGUUCGGAUCUGC` the log2 enrichment was 0.367.
`UCCUGUGCUACACAUCGUAUGUACCGAAUCGGGGUUUGGGGAAAAAGGGGAAAAAGGGGAAAGUAUUAUGUUACGCCGUUCGGAUCUGCA` has a log2 enrichment of 0.588.
For `GUCCUGUGCUACACAUCGUAUGUACCGAAUCGGGUUUUUUUGGGUUUUUGGGUUUGGGAAAGUAUUAUGUUACGCCGUUCGGAUCUGCAC`, the log2 enrichment was 0.0556.
For `GCAGGAAGUAAAAACAAAUGGAAAUGCUUCGGAUAGUGGCAGGGGUGGGGGUUGCUAAGGAAAGGGUGGGAUGGGAAAGGGUAAAGAGUU`, the log2 enrichment was 0.00341.
With `AAGUCCUGUGCUACACAUCGUAUGUACCGAAUCGGGGAAAGGGGAGGGGUUUGGGGAAAGUAUUAUGUUACGCCGUUCGGAUCUGCACUU` the log2 enrichment was 0.613.
With `AGUCCUGUGCUACACAUCGUAUGUACCGAAUCGGCCCCGGGGCCCCGGGGCCCCGGGAAAGUAUUAUGUUACGCCGUUCGGAUCUGCACU` the log2 enrichment was -0.482.
With `UAACUUUAGAGGAGGAUCUGAUGGAUAUGGCAGUGGACGUGGAUUUGGGGAUGGCUAUAAUGGGUAUGGAGGAGGACCUGGAGGUCGCAA` the log2 enrichment was 0.275.

Sample 2 — method: universal PBM; molecule type: double-stranded DNA, one strand shown; sample: in vitro; tested at: 600 nM; reading: higher = stronger binding
Target: Sal-like protein 4, full length isoform A (SALL4, Homo sapiens, UniProt Q9UJQ4, residues 1-1053)
UniProt Q9UJQ4, sequence (whole entry, looked up): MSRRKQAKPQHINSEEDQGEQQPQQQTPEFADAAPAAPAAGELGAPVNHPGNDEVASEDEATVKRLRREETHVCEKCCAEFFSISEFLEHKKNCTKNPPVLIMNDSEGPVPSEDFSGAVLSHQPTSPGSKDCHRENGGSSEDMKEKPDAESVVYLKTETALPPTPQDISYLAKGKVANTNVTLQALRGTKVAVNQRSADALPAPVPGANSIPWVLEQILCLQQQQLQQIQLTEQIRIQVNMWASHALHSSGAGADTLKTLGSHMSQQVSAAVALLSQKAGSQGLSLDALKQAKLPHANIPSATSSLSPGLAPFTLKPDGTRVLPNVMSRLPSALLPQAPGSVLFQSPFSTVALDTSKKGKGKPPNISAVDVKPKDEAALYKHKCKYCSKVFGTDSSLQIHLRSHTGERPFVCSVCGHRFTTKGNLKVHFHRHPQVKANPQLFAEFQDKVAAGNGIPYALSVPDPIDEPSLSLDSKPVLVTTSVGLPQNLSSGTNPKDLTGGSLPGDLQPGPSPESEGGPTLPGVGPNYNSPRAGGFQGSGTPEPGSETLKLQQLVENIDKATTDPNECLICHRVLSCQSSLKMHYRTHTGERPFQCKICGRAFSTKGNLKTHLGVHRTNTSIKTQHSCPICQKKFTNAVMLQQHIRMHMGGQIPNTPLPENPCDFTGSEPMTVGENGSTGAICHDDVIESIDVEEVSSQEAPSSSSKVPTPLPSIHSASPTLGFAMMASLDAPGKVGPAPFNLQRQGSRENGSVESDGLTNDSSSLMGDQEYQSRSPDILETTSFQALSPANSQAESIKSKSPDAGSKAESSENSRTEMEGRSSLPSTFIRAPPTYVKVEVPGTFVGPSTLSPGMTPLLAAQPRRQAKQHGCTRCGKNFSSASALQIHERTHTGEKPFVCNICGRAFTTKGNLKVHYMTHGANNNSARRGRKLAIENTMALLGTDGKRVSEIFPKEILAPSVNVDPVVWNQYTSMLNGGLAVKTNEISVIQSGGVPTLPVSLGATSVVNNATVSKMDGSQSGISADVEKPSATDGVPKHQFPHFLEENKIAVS
Setting: 8-mer, flanks averaged, mean of replicates
With `CTGCAAAA` the E-score was 0.223.
`CAAAGGTC` gave an E-score of -0.264.
The E-score of `AAGGCATC` is reported as -0.137.
`ACAACTGT` gave an E-score of 0.0158.
`CGACCTTA` gave an E-score of 0.0673.
With `GCGCTGCA` the E-score was -0.16.
`AGGCGAAC` gave an E-score of -0.248.
`ATCAGGTG` has an E-score of -0.107.

Sample 3 — method: DHFR PCA, dose-response; sample: yeast; setting: Hill fit, mean, not affinity; with: (+)-ABA, dose series; reading: lower = more sensitive
Target: ABI1, truncated, D143A, DHFR fusion (Arabidopsis thaliana, UniProt P49597)
Starting sequence: PYL1, truncated, DHFR fusion (Arabidopsis thaliana, UniProt Q8VZS8); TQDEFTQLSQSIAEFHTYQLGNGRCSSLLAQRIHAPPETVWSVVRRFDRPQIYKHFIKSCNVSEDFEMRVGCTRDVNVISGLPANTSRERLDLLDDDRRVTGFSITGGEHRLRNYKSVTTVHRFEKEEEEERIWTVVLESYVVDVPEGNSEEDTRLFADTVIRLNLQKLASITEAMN
`R111G` has an ABA EC50 of 160 µM.
For `T106D`, the ABA EC50 was 49.4 µM.
For `D144L`, the ABA EC50 was 94.2 µM.
For `A175K`, the ABA EC50 was 1.78 µM.
For `R88K`, the ABA EC50 was 1.98 µM.
`G21Q` gave an ABA EC50 of 2.04 µM.
`E67Y` gave an ABA EC50 of 5.01 µM.
For `S11K`, the ABA EC50 was 6.71 µM.

Mixed results
Starting sequence: PafA, mature enzyme, eGFP fusion (Elizabethkingia meningoseptica, UniProt Q9KJX5); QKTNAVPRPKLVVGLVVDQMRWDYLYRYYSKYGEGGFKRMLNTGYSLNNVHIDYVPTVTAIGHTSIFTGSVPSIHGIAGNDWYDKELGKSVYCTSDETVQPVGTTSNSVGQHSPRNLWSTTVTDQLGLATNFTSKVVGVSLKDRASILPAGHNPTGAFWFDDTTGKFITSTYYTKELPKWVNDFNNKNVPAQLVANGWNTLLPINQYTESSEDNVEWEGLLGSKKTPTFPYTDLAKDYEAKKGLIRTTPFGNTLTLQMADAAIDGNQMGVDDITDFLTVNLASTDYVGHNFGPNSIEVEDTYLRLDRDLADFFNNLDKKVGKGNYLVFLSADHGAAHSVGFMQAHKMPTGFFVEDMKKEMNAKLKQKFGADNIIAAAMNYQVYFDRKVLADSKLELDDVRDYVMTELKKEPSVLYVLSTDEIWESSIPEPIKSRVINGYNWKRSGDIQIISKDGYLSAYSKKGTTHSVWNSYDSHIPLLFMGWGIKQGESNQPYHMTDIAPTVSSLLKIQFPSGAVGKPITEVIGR
For `S108V`, “oxyanion analog dissociation constant” read 3.51 µM (tungstate, free oxyanion; microfluidic competitive inhibition; in vitro, cell-free expressed; not given, derived from inhibition constants, unchanged parent 2230 nM; lower = stronger binding).

Excerpt of the above (sample 3):
For `D144L`, the ABA EC50 was 94.2 µM.
For `A175K`, the ABA EC50 was 1.78 µM.
For `R88K`, the ABA EC50 was 1.98 µM.
